Assay results of several laboratories.
Lines come from different studies, so protocols differ. ± gives the spread as reported. ≈ marks a conversion by molar mass, not a printed value. Where no end group is shown, it is not given here.

TDVDHVFLRA-NH2 (C-amide)
inhibition (Drosophila melanogaster; heart rate; adult heart; 40 nL injected, 1 µM, 10 min; relative to: DMS): 41%

TRTRVSRLY
viral yield (rhesus rotavirus; peptide, mouse cholangiocytes; 1 mM, cell pretreatment; relative to: serum-free medium): decreased

CC(C)C12C=CC(C)(CC1)OO2 (centres unmarked)
IC50 (Leishmania tarentolae; viability, resazurin; promastigotes, Schneider's medium; 48 h, 26 °C, added: 10% FCS): 175 ± 83.4 µM

Cc1oc(-c2ccc(Cl)cc2)nc1CN1CCC(C(=O)NCCCN2CCCC2=O)CC1
maximal response (Hepatitis C virus; HCV infection, Gaussia luciferase reporter; Huh7.5.1 reporter cells; relative to: 10 µM cyclosporin A, DMSO, negative means inhibition): -38.6%

TDVDHVFLRF-OH (C-acid)
inhibition (Drosophila melanogaster; heart rate; peptide, wandering third instar larval heart; 40 nL injected, 1 µM, 10 min; relative to: DMS): 27%

Cc1cn([C@H]2C[C@H](N=[N+]=[N-])[C@@H](CO)O2)c(=O)[nH]c1=O
EC90 (HIV-1; viral replication; PBMC, LAI): 15 nM

CCCCCCCCOc1c(OC)cc(NC(C)CCCNC(=O)C2CCCN2)c2nc(C(C)(C)C)ccc12 (centres unmarked)
MBC (Staphylococcus aureus; microbial killing; ATCC33591 MRSA; drug-resistant strain): 20 µg/mL (≈ 37 µM)

TAVDHVFLRF-NH2 (C-amide)
inhibition (Drosophila melanogaster; gut contraction; adult gut; 1 µM, within 10 min; relative to: DMS effect): 100%

CCN(CC)Cc1cc(Nc2ccnc3cc(Cl)ccc23)ccc1O
EC90 (Dengue virus 2; viral replication; BHK-21; 96 h): 2710 ± 850 nM

CC[C@H](C)[C@H](N)C(=O)N[C@@H](CC(C)C)C(=O)N1CCC[C@H]1C(=O)N[C@@H](Cc1c[nH]c2ccccc12)C(=O)N[C@@H](CCCCN)C(=O)N[C@@H](Cc1c[nH]c2ccccc12)C(=O)N1CCC[C@H]1C(=O)N[C@@H](Cc1c[nH]c2ccccc12)C(=O)N[C@@H](Cc1c[nH]c2ccccc12)C(=O)N1CCC[C@H]1C(=O)N[C@@H](Cc1c[nH]c2ccccc12)C(=O)N[C@@H](CCCNC(=N)N)C(=O)N[C@@H](CCCNC(=N)N)C(N)=O
MIC range (Pseudomonas aeruginosa; broth microdilution; 18 h, 10 clinical isolates): 4 to 64 µg/mL (≈ 2.1 to 33.6 µM)

CCCCCOc1c(OC)cc(NC(C)CCCNC(=O)C(N)CCCNC(=N)N)c2nc(C(C)(C)C)ccc12 (centres unmarked)
MBC (Staphylococcus aureus; microbial killing; ATCC33591 MRSA; drug-resistant strain): 20 µg/mL (≈ 35.9 µM)

CC[C@H](C)[C@H](NC(=O)[C@H](CC(C)C)NC(=O)[C@H](Cc1c[nH]cn1)NC(=O)[C@H](Cc1c[nH]cn1)NC(=O)[C@@H](NC(=O)[C@H](Cc1ccccc1)NC(=O)[C@H](Cc1c[nH]cn1)NC(=O)[C@H](Cc1c[nH]c2ccccc12)NC(=O)[C@@H](NC(=O)[C@H](Cc1c[nH]cn1)NC(=O)[C@H](Cc1c[nH]cn1)NC(=O)[C@H](Cc1c[nH]c2ccccc12)NC(=O)[C@@H](N)CC(C)C)[C@@H](C)CC)C(C)C)C(N)=O
infectivity reduction (herpes simplex virus 1; intracellular virus, plaque; Vero, F; concentration not given, 24 h post-infection, added after entry): 77.7%

CC(=NNC(=O)CN1c2c(-c3ccccc3)n[nH]c2-c2ccccc2S1(=O)=O)c1ccc(Cl)s1
EC90 (HIV-1; viral replication; PBMC): > 100000 nM

CP(=O)(O)CCC(N)C(=O)O (centres unmarked)
herbicidal activity (Setaria faberi; 125 g/ha, 13 days, SETFA, post-emergence spray; relative to: untreated (0%), complete kill (100%)): 100%

CC(=O)OC[C@]12Oc3ccc(-c4ccc(O)c5c4O[C@@]4(COC(C)=O)C(=C(O)C[C@@H](C)[C@H]4OC(C)=O)C5=O)c(O)c3C(=O)C1=C(O)C[C@@H](C)[C@H]2OC(C)=O
mycelial growth (Phyllosticta citricarpa; PDA plates; 10000 µg/mL, 504 h): 1.7 ± 0.3 cm

CCCCOc1c(OC)cc(NC(C)CCCNC(=O)C(N)CCCCN)c2nc(C(C)(C)C)ccc12 (centres unmarked)
MBC (Staphylococcus aureus; MRSA ATCC 33591): > 20 µg/mL

CC(C)C[C@H](NC(=O)[C@H](C)NC(=O)[C@H](CC(C)C)NC(=O)[C@H](CCCCN)NC(=O)[C@H](CC(C)C)NC(=O)[C@H](CCCCN)NC(=O)[C@@H](N)CCCCN)C(=O)N[C@@H](C)C(=O)N[C@@H](CCCCN)C(=O)N[C@@H](CC(C)C)C(=O)N[C@@H](C)C(=O)N[C@@H](CC(C)C)C(=O)N[C@@H](CC(C)C)C(=O)N[C@@H](Cc1c[nH]c2ccccc12)C(=O)N[C@@H](CCCCN)C(=O)N[C@@H](C)C(=O)N[C@@H](CC(C)C)C(=O)N[C@@H](C)C(=O)N[C@@H](CC(C)C)C(=O)N[C@@H](CCCCN)C(=O)N[C@@H](CC(C)C)C(=O)N[C@@H](CCCCN)C(=O)N[C@@H](CCCCN)C(=O)N[C@@H](C)C(N)=O
MIC50 (Pseudomonas aeruginosa; broth microdilution; PAO1; overnight, 37 °C): 2.23 ± 0.41 µM (≈ 5.96 µg/mL)

CCCCCCCOc1c(OC)cc(NC(C)CCCNC(=O)C(N)C(C)CC)c2nc(C(C)(C)C)ccc12 (centres unmarked)
IC50 (Staphylococcus aureus; microbial growth; ATCC33591 MRSA; drug-resistant strain): 2.34 µg/mL

DGEA
viral yield (rhesus rotavirus; peptide, mouse cholangiocytes; 1 mM, cell pretreatment; relative to: serum-free medium): inhibited

CCCCCn1c(=O)[nH]c2cc(C(=O)NCCCN3CCCCC3)ccc2c1=O
maximal response (Hepatitis C virus; HCV infection, Gaussia luciferase reporter; Huh7.5.1 reporter cells; relative to: 10 µM cyclosporin A, DMSO, negative means inhibition): -72.7%

CC(=NNC(=O)CN1c2c(-c3ccccc3)n[nH]c2-c2ccccc2S1(=O)=O)c1ccc2ccccc2c1
EC90 (HIV-1; viral replication; PBMC): > 100000 nM

CCC1CCCCN1CCCNC(=O)c1ccc2c(=O)n(CCOC)c(=O)[nH]c2c1 (centres unmarked)
maximal response (Hepatitis C virus; HCV infection, Gaussia luciferase reporter; Huh7.5.1 reporter cells; relative to: 10 µM cyclosporin A, DMSO, negative means inhibition): -1.23%

CCCCCCCOc1c(OC)cc(NC(C)CCCNC(=O)C(N)Cc2cc3ccccc3[nH]2)c2nc(C(C)(C)C)ccc12 (centres unmarked)
MBC (Staphylococcus aureus; microbial killing; ATCC33591 MRSA; drug-resistant strain): 10 µg/mL (≈ 16.2 µM)

O=C/C=C/c1ccccc1
time to 1 log10 kill (Cryptococcus neoformans; CN, PBS; 2 x MIC, up to 48 h, 37 °C; relative to: untreated): 7 h

TFFRLFNRGRRRRSVQWCA
biofilm growth (Streptococcus gordonii; OD600; peptide, ATCC 10558, 4 h single-species biofilm; 128 µg/ml, 5 min exposure, OD600 read over 5 h): no effect

CCCCCOc1c(OC)cc(NC(C)CCCNC(=O)C(N)CCCCN)c2nc(C(C)(C)C)ccc12 (centres unmarked)
MBC (Staphylococcus aureus; MRSA ATCC 33591): > 20 µg/mL

C=CCc1ccc(OC(C)=O)c(OC)c1
LD50 (Spodoptera frugiperda; topical, larvae): 2020 mg/kg

CC(=NNC(=O)CN1c2c(-c3ccccc3)n[nH]c2-c2ccccc2S1(=O)=O)c1cc(C)sc1C
EC90 (HIV-1; viral replication; PBMC): > 100000 nM

CC[C@H](C)[C@H](NC(=O)[C@H](CCCCN)NC(=O)[C@H](CCC(=O)O)NC(=O)[C@H](CCCCN)NC(=O)[C@H](CO)NC(=O)[C@H](CCCCN)NC(=O)[C@H](CCCNC(=N)N)NC(=O)[C@H](Cc1ccccc1)NC(=O)[C@H](Cc1ccccc1)NC(=O)[C@H](CC(=O)O)NC(=O)CNC(=O)[C@H](CC(C)C)NC(=O)[C@@H](N)CC(C)C)C(=O)NCC(=O)N[C@@H](CCCCN)C(=O)N[C@@H](CCC(=O)O)C(=O)N[C@@H](Cc1ccccc1)C(=O)N[C@@H](CCCCN)C(=O)N[C@@H](CCCNC(=N)N)C(=O)N[C@H](C(=O)N[C@H](C(=O)N[C@@H](CCC(N)=O)C(=O)N[C@@H](CCCNC(=N)N)C(=O)N[C@H](C(=O)N[C@@H](CCCCN)C(=O)N[C@@H](CC(=O)O)C(=O)N[C@@H](Cc1ccccc1)C(=O)N[C@@H](CC(C)C)C(=O)N[C@@H](CCCNC(=N)N)C(=O)N[C@@H](CC(N)=O)C(=O)N[C@@H](CC(C)C)C(=O)N[C@H](C(=O)N1CCC[C@H]1C(=O)N[C@@H](CCCNC(=N)N)C(=O)N[C@H](C(=O)N[C@@H](CCC(=O)O)C(=O)N[C@@H](CO)C(=O)O)[C@@H](C)O)C(C)C)[C@@H](C)CC)C(C)C)[C@@H](C)CC
MIC ratio (Staphylococcus aureus; JE2 SAUSA300_1308 arlR transposon mutant; 12.5% TSB; relative to: wild type over mutant): 2 fold
